Results from different studies.
Compare with care: the assays were run in different laboratories. ± gives the spread as reported.

| Structure (SMILES) | target or system | assay | system | conditions | scale | endpoint | value |
| --- | --- | --- | --- | --- | --- | --- | --- |
| CC[C@H](C)[C@H](NC(=O)[C@H](CCCNC(=N)N)NC(=O)[C@H](CCCCN)NC(=O)[C@H](Cc1ccc(O)cc1)NC(=O)[C@H](CC(=O)O)NC(=O)[C@H](C)NC(=O)CNC(=O)CCOCCOCCOCCNC(=O)CN1CCN(CC(=O)O)CCN(CC(=O)O)CCN(CC(=O)O)CC1)C(=O)N[C@H](C(=O)N[C@H](C(=O)N[C@@H](CCCCN)C(=O)N[C@H](C(=O)N[C@@H](CC(N)=O)C(N)=O)C(C)C)C(C)C)[C@@H](C)O [copper-64 labelled] |  | ex vivo gamma counting | C57BL/6J male mice, B16-F10 tumour, stomach | intravenous, 1.85 MBq, 20 min |  | tissue uptake | 1.98 ± 0.146 %ID/g |
| CCCC[C@H]1C(=O)N(C)[C@@H](CCCC)C(=O)N[C@@H](CCCNC(=O)CN2CCN(CC(=O)O)CCN(CC(=O)O)CCN(CC(=O)O)CC2)C(=O)N[C@H](C(=O)NCC(N)=O)CSCC(=O)N[C@@H](Cc2ccc(O)cc2)C(=O)N(C)[C@@H](C)C(=O)N[C@@H](CC(N)=O)C(=O)N2CCC[C@H]2C(=O)N[C@@H](Cc2c[nH]cn2)C(=O)N[C@@H](CC(C)C)C(=O)N(C)CC(=O)N[C@@H](Cc2c[nH]c3ccccc23)C(=O)N[C@@H](CO)C(=O)N[C@@H](Cc2c[nH]c3ccccc23)C(=O)N1C [gallium-68 labelled] |  |  | NOD/SCID mice, CHO-hPD-L1 xenograft, blood | 60 min, PBS pretreatment |  | tissue uptake | 8.15 ± 1 %ID/g |
| CC[C@H](C)[C@H](NC(=O)[C@H](CCCCN)NC(=O)CNC(=O)[C@H](CC(C)C)NC(=O)[C@H](Cc1ccccc1)NC(=O)[C@H](CCCCN)NC(=O)[C@H](CO)NC(=O)[C@H](Cc1ccccc1)NC(=O)[C@H](Cc1c[nH]c2ccccc12)NC(=O)[C@H](CCC(N)=O)NC(=O)[C@@H](NC(=O)[C@H](Cc1ccccc1)NC(=O)CCCCCNC(=O)CN1CCN(CC(=O)O)CCN(CC(=O)O)CCN(CC(=O)O)CC1)C(C)C)C(=O)N[C@@H](CCC(=O)O)C(=O)N1CCC[C@H]1C(=O)N[C@@H](CC(=O)O)C(=O)N[C@H](C(=O)N[C@@H](CO)C(=O)N[C@@H](CCC(N)=O)C(=O)N[C@H](C(=O)N[C@@H](CCC(N)=O)C(=O)N[C@@H](CC(=O)O)C(=O)N1CCC[C@H]1C(=O)N[C@@H](CC(N)=O)C(=O)N[C@@H](CC(=O)O)C(=O)N[C@@H](CCC(N)=O)C(=O)N[C@@H](Cc1ccc(O)cc1)C(=O)N[C@@H](CCC(=O)O)C(=O)N1CCC[C@H]1C(=O)N[C@@H](Cc1ccccc1)C(=O)O)C(C)C)C(C)C [copper-64 labelled] |  |  | C57BL/6 mice, male, tumour-free, kidneys | 2 h |  | tissue uptake | 54.4 ± 9.5 %ID/g |
| Cc1cc(-c2ccc3ccccc3c2)nnc1NCCN1CCN(C)CC1 | Caco-2 | Caco-2 permeability | apical to basolateral | 5 µM, 0.5 h |  | recovery | 50.5% |
| CN1Cc2cc(Cl)ccc2-n2c(nnc2C2CCN(c3cccc([18F])n3)CC2)C1 |  |  | C57BL/6 mouse male, heart | intravenous, dose not given, 30 min, added: blocking agent 10 mg/kg |  | tissue uptake | 5.29 ± 1.52 %ID/g |
| CSCC[C@H](NC(=O)CNC(=O)[C@H](CCCCN)NC(=O)[C@H](CC(C)C)NC(=O)[C@@H]1CCCN1C(=O)[C@H](CO)NC(=O)[C@H](Cc1c[nH]cn1)NC(=O)[C@H](Cc1c[nH]c2ccccc12)NC(=O)[C@H](CCCNC(=N)N)NC(=O)[C@H](CC(C)C)NC(=O)[C@H](CCCNC(=N)N)NC(=O)[C@H](Cc1c[nH]c2ccccc12)NC(=O)[C@H](CS)NC(=O)CCCCCNC(=O)CN1CCN(CC(=O)O)CCN(CC(=O)O)CCN(CC(=O)O)CC1)C(=O)O [copper-64 labelled] |  | ex vivo biodistribution | BALB/c nude mice, ovaries | intravenous, dose not given, 6 h, Huh-7 tumour-bearing |  | tissue uptake | 2.1 %ID/g |
| COc1ccccc1-c1n[nH]c2nc(NC3CCN(C(=O)Cc4ccc(F)cc4F)CC3)ncc12 |  | bead binding, competition bead pull-down, refers to: LMJF.34.3670 | Leishmania donovani axenic amastigote extract | 10 µM | reference: vehicle | relative abundance | 1.28 |
| C[C@H](O)[C@@H](NC(=O)[C@H]1CCCN1C(=O)[C@@H](CCCCN)NC(=O)[C@@H](CO)NC(=O)[C@@H](Cc1ccc(O)cc1)NC(=O)[C@@H](CC(N)=O)NC(=O)CCOCCOCCOCCNC(=O)CN1CCN(CC(=O)O)CCN(CC(=O)O)CCN(CC(=O)O)CC1)C(=O)N[C@H](CC(=O)O)C(=O)N[C@H](CCCNC(=N)N)C(=O)N[C@H](CCC(N)=O)C(=O)N[C@H](Cc1ccc(O)cc1)C(=O)N[C@H](Cc1c[nH]cn1)C(=O)N[C@H](Cc1ccccc1)C(N)=O [gallium-68 labelled] |  |  | BALB/c nude mice U-87 MG tumour, kidney | intravenous, 1.85 MBq, 0.5 h, radiolabelled |  | tissue uptake | 16.1 ± 1.51 %ID/g |
| O=C1NC2(CC2)COc2ncc(F)cc2[C@H]2COCCN2c2ccn3ncc1c3n2 |  |  | Sprague-Dawley rat, female, thymus | oral, 2.5 mg/kg/day, 4 weeks dosing, end of recovery |  | organ-to-body weight ratio | 0.134 ± 0.018% |
| CC[C@H](C)[C@H](NC(=O)[C@@H](Cc1c[nH]c2ccccc12)NC(=O)[C@@H]1CCCN1C(=O)[C@H](CCCCN)NC(=O)[C@H](CCCCN)NC(=O)CCNC(=O)CCNC(=O)CN1CCN(CC(=O)O)CCN(CC(=O)O)CCN(CC(=O)O)CC1)C(=O)N[C@@H](C[Si](C)(C)C)C(=O)O [gallium-68 labelled] |  |  | nude mouse HT-29 xenograft, intestine | 90 min |  | tissue uptake | 0.62 ± 0.31 %ID/g |
| CC(C)(C)C(=O)OCOP(=O)(OCOC(=O)C(C)(C)C)C1CCCN(O)C1=O (stereo not drawn) | OVCAR-3 |  |  |  |  | GI50 | 559 nM |
| CC[C@H](C)[C@H](NC(=O)[C@H](CCCNC(=N)N)NC(=O)[C@H](CCCCN)NC(=O)[C@H](Cc1ccc(O)cc1)NC(=O)[C@H](CC(=O)O)NC(=O)[C@H](C)NC(=O)CNC(=O)CCOCCOCCOCCNC(=O)CN1CCN(CC(=O)O)CCN(CC(=O)O)CCN(CC(=O)O)CC1)C(=O)N[C@H](C(=O)N[C@@H](CC(C)C)C(=O)N[C@@H](CCCCN)C(=O)N[C@H](C(=O)N[C@@H](CC(N)=O)C(N)=O)C(C)C)[C@@H](C)O [copper-64 labelled] |  | ex vivo gamma counting | C57BL/6J male mice, B16-F10 tumour, brain | intravenous, 1.85 MBq, 40 min |  | tissue uptake | 0.126 ± 0.038 %ID/g |

Repeated from above:
| Structure (SMILES) | target or system | assay | system | conditions | scale | endpoint | value |
| --- | --- | --- | --- | --- | --- | --- | --- |
| CC[C@H](C)[C@H](NC(=O)[C@H](CCCCN)NC(=O)CNC(=O)[C@H](CC(C)C)NC(=O)[C@H](Cc1ccccc1)NC(=O)[C@H](CCCCN)NC(=O)[C@H](CO)NC(=O)[C@H](Cc1ccccc1)NC(=O)[C@H](Cc1c[nH]c2ccccc12)NC(=O)[C@H](CCC(N)=O)NC(=O)[C@@H](NC(=O)[C@H](Cc1ccccc1)NC(=O)CCCCCNC(=O)CN1CCN(CC(=O)O)CCN(CC(=O)O)CCN(CC(=O)O)CC1)C(C)C)C(=O)N[C@@H](CCC(=O)O)C(=O)N1CCC[C@H]1C(=O)N[C@@H](CC(=O)O)C(=O)N[C@H](C(=O)N[C@@H](CO)C(=O)N[C@@H](CCC(N)=O)C(=O)N[C@H](C(=O)N[C@@H](CCC(N)=O)C(=O)N[C@@H](CC(=O)O)C(=O)N1CCC[C@H]1C(=O)N[C@@H](CC(N)=O)C(=O)N[C@@H](CC(=O)O)C(=O)N[C@@H](CCC(N)=O)C(=O)N[C@@H](Cc1ccc(O)cc1)C(=O)N[C@@H](CCC(=O)O)C(=O)N1CCC[C@H]1C(=O)N[C@@H](Cc1ccccc1)C(=O)O)C(C)C)C(C)C [copper-64 labelled] |  |  | C57BL/6 mice, male, tumour-free, kidneys | 2 h |  | tissue uptake | 54.4 ± 9.5 %ID/g |
